Values quoted from earlier work as cited in several papers.
Compare with care: the assays were run in different laboratories. ± marks the error that the study gave.
Sequence of UniProt Q15759 (whole entry, looked up): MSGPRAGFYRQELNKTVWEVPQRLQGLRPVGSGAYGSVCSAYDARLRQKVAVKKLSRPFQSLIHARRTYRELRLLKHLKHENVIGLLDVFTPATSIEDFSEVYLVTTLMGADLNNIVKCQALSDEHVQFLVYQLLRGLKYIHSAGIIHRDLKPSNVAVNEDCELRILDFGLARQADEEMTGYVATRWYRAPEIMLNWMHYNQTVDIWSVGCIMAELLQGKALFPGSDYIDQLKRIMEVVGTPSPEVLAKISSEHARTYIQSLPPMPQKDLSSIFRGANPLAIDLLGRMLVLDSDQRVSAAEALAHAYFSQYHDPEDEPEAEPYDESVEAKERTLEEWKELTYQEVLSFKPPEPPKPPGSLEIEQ

`CC(C)c1nc(N(C)S(C)(=O)=O)nc(-c2ccc(F)cc2)c1/C=C/[C@@H](O)C[C@@H](O)CC(=O)O` has an AUC(0-inf) of 207 ng·h/mL (BCRP substrate; human, plasma; dose not given, added: pirtobrutinib multiple doses).
For `COc1cc2c(Oc3ccc4[nH]c(C)cc4c3F)ccnc2cc1OCC1(N)CC1`, the AUC(0-inf) was 1580 ± 470 ng·h/mL (human; 16 mg single dose).
With `C#C[C@]1(O)CC[C@H]2[C@@H]3CCC4=CC(=NO)CC[C@@H]4[C@H]3CC[C@@]21CC` (mixture of isomers) the AUC(0-inf) was 9.72 ng·h/mL (human; 0.18 mg norgestimate single dose, fed).
The AUC(0-inf) of `CC(C)[C@H](C(=O)Nc1ccc(C(=O)NO)cc1)c1ccccc1` is reported as 4.4 µM·h (human subjects; oral, 20 mg).
For `Cn1c(Cn2ccc(C(F)(F)F)c(Oc3cc(Cl)cc(C#N)c3)c2=O)n[nH]c1=O`, the AUC(0-inf) was 250 µM·h (human; 1200 mg single dose).
For `Nc1cc(C(F)(F)F)c(-c2nc(N3CCOCC3)nc(N3CCOCC3)n2)cn1`, the remaining activity was 95% (MAPK11 (Homo sapiens, UniProt Q15759); enzyme activity; 10 µM; relative to: untreated).
With `C[C@H]1CO[C@@H]2Cn3cc(C(=O)NCc4ccc(F)cc4F)c(=O)c(O)c3C(=O)N12` the AUC(0-inf) was 62400 ng·h/mL (human; oral solution, 10 mg, geometric mean).
The AUC(0-inf) of `CNCc1cc(-c2ccccc2F)n(S(=O)(=O)c2cccnc2)c1` is reported as 96.8 ng·h/mL (human; 10 mg, multiple dose).
`COCCc1ccc(OCC(O)CNC(C)C)cc1` (stereo not shown) has an AUC(0-inf) of 2140 ng·h/mL (human; 400 mg single dose, fasted).
`C[C@@H](Oc1ccc(S(C)(=O)=O)cc1C(=O)N1C[C@@H]2C[C@]2(c2cc(C(F)(F)F)on2)C1)C(F)(F)F` gave an AUC(0-inf) of 17.1 µM·h (human; oral, 50 mg, solution, fasted, single dose).
For `Cc1ccccc1CN1C(=O)C2=C(CCN(Cc3ccccc3)C2)N2CCN=C12`, the AUC(0-inf) was 18700 ng·h/mL (human; oral, 625 mg, fasted, single dose).
With `Cc1cc(C)c(CNC(=O)c2cc(Cl)c3c(c2C)O[C@@](C)([C@H]2CC[C@H](N(C)C)CC2)O3)c(=O)[nH]1` the AUC(0-inf) was 737 ng·h/mL (human; 25 mg).
The AUC(0-inf) of `Cc1nsc(-c2nnc3n2CCN(C(=O)c2ccc(F)cc2)[C@@H]3C)n1` is reported as 2760 ng·h/mL (human; oral, 45 mg, single dose, fed).

For quick reference, copied from above:
`COCCc1ccc(OCC(O)CNC(C)C)cc1` (stereo not shown) has an AUC(0-inf) of 2140 ng·h/mL (human; 400 mg single dose, fasted).
`CC(C)c1nc(N(C)S(C)(=O)=O)nc(-c2ccc(F)cc2)c1/C=C/[C@@H](O)C[C@@H](O)CC(=O)O` has an AUC(0-inf) of 207 ng·h/mL (BCRP substrate; human, plasma; dose not given, added: pirtobrutinib multiple doses).
